Results from different studies.
A part holds a random share of what one study measured. Changes are numbered by the printed parent chain.

Block 1
Target: CCND2, cyclin fold, Cln2 fusion (human)
Method: yeast growth competition, sequencing
Medium: yeast
Setting: strong parent motif
Baseline: not given
Direction: higher = stronger binding
Parent: INSM1 docking peptide (human); PKAIRKLHFEDEV; partner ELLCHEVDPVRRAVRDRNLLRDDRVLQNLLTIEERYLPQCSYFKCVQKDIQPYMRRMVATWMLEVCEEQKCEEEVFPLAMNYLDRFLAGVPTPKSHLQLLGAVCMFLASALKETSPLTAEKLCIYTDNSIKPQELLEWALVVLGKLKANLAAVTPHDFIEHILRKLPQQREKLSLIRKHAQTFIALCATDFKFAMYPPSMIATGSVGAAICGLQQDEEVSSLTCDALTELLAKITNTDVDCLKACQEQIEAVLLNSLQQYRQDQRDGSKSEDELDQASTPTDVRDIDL
Substitution	normalised enrichment score
K6W	1.2
K6T	0.64
F9T	0.127
R5H	0.215

Block 2
Target: Interferon regulatory factor 3, full length, phosphomimetic (IRF3, Homo sapiens, UniProt Q14653, residues 1-427, S386D/S396D/S398D/S402D/T404D/S405D)
UniProt Q14653, sequence (whole entry, unmodified, looked up): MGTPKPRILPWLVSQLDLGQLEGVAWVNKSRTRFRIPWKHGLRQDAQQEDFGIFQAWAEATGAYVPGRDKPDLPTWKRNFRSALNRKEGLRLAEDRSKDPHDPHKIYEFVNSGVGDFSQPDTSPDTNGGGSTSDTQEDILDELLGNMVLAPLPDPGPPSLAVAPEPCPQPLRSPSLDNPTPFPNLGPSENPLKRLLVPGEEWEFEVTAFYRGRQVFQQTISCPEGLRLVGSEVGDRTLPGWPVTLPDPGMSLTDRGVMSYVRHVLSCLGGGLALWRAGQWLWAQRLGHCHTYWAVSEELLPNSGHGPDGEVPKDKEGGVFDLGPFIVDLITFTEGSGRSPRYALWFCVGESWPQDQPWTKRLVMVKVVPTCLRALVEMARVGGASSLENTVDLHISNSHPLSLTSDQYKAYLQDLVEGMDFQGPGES
Method: protein-binding microarray
Molecule type: double-stranded DNA, one strand shown
Medium: in vitro
Tested at: 2540 nM top
Setting: 60-bp whole probe
With: salmon DNA 0.4 mg/ml
Baseline: random background probes
Direction: higher = stronger binding
Constant ends, left off below: GCCTAGCAC … GTCTTGATTCGCTTGACGCTGCTG
Oligonucleotide	fitted relative affinity [z-score]
GACGGTATCGACTTTCGGGAGGTGCTA	1.32
TCATTTCTTTAACTCATACTGTGCTAG	2.3
ATGGTCCTCTCTCTATTCAGGTGCTAG	0.86
TTAGAACTGGCGTATCGATTAGTGCTA	-0.315
TTAGACATCGGGTATCGATTAGTGCTA	-0.302
GACGAACTGAGTATCGAGCCGTGCTAG	-0.275

Block 3
Target: Histone acetyltransferase KAT6A, both winged helices, GST fusion (KAT6A, Homo sapiens, UniProt Q92794, residues 1-181)
Method: protein binding microarray
Molecule type: double-stranded DNA, one strand shown
Medium: in vitro
Tested at: not given
Setting: 8-mer, flanks averaged, mean of 2 arrays, mostly near background
Baseline: not given
Direction: higher = stronger binding
Target sequence (chain): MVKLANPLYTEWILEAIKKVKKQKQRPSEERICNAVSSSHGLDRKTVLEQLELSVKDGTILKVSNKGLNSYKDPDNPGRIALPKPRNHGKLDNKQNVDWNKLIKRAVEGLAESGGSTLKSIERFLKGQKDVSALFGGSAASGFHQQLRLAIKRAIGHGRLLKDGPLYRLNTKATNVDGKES
Oligonucleotide	E-score
ACAGGGTC	-0.0365
GAGTTTAC	-0.0256
AGTTTGGC	0.0818
CGGGCTCA	0.124
CTGACGTA	0.000535

Mixed results
Molecule	target	assay	test system	setting	how to read	measurement	result
PhoQ, residues 284 288 289 292 302 303 SLSLLA	PhoP, residues 12 14 15 18 19 LWHCS (Escherichia coli, UniProt P23836)	Sort-seq, item: YFP reporter	E. coli	PhoQ-PhoP variant library, with: 10 µM Mg2+	baseline: high Mg2+ state, higher = stronger signaling	fold induction	2.89
